Experimental data gathered from unrelated publications.
Protocols differ between the studies behind these lines. No end group written: not given here.
H2-Ab1/H2-Aa: H2-Ab1/H2-Aa (Mus musculus, UniProt P01921+P04228)
Chain of UniProt P01921 (whole entry, looked up): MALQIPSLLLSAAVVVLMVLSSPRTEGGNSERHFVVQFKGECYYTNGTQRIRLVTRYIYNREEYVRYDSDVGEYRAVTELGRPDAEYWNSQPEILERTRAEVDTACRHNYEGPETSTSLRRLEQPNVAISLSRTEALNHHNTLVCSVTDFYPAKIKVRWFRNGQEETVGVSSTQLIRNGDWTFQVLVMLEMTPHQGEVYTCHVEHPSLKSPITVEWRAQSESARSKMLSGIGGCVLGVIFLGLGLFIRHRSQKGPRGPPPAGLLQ
Chain of UniProt P04228 (whole entry, looked up): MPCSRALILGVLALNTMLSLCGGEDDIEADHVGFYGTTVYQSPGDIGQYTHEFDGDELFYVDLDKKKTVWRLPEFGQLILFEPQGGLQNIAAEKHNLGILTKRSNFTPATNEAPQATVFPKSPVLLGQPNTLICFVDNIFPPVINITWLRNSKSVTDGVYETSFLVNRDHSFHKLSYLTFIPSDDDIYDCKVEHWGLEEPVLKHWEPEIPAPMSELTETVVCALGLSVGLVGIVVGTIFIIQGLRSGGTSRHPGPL
T1: PDHA1/PDHB 30-390 E229Q on β (Homo sapiens); chain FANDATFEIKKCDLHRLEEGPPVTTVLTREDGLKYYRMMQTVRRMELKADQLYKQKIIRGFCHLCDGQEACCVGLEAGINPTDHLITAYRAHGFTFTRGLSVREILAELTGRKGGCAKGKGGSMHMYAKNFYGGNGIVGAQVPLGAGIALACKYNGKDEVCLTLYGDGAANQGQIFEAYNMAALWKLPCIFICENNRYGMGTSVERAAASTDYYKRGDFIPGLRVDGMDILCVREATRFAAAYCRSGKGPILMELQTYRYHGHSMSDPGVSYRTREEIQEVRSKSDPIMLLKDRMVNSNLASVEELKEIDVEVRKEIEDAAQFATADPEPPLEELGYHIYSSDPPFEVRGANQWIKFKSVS; chain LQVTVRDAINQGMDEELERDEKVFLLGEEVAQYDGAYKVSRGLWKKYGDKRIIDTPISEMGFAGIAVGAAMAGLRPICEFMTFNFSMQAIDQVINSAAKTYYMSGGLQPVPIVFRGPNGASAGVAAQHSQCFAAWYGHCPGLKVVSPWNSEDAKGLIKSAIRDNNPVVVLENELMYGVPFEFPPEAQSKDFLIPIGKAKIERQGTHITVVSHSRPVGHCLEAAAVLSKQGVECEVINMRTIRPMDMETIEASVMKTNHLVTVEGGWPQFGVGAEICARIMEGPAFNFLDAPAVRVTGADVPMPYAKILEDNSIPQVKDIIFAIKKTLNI
B1: DLAT 214-416 (Homo sapiens, UniProt P10515); sequence looked up; chain SYPPHMQVLLPALSPTMTMGTVQRWEKKVGEKLSEGDLLAEIETDKATIGFEVQEEGYLAKILVPEGTRDVPLGTPLCIIVEKEADISAFADYRPTEVTDLKPQVPPPTPPPVAAVPPTPQPLAPTPSAPCPATPAGPKGRVFVSPLAKKLAVEKGIDLTQVKGTGPDGRITKKDIDSFVPSKVAPAPAAVVPPTGPGMAPVP
B2: tuf (Methanothermobacter thermautotrophicus, UniProt O27132); sequence looked up; chain MAKEKEHMNLAFIGHVDHGKSTLVGHLLLQAGAIAEQQLAEGEDKFRFVMDRLSEERERGVTIDLAHAKFETDKYEFTIVDCPGHRDFVKNMITGASQADAAVLVVAVDDGVMPQTKEHVFLSRTLGINQLIVAINKMDLVNYDEEKFNALKDEVAALIKTVGYKPSDVEFIPLSAFEGDNITSKSENTPWYKGKTLVEALDDLEAPEKPVDLPLRIPIQDVYSITGVGTVPVGRVETGVLKKGENVIFEPAGVSGEVKSIEMHHEMIEQAEPGDNIGFNVRGVGKNDIRRGDVAGHLDNPPKVAKEFTAQIVVLQHPGVITVGYTPVFHCHTAQVACTFLELVQKMNPATGQVEEENPDFLKTGNAAVVKVKPTKPLVIEKIKDIPHMGRFAIRDMGQTVAAGMCIDLVPAK
Chain of UniProt Q9H4B4 (whole entry, looked up): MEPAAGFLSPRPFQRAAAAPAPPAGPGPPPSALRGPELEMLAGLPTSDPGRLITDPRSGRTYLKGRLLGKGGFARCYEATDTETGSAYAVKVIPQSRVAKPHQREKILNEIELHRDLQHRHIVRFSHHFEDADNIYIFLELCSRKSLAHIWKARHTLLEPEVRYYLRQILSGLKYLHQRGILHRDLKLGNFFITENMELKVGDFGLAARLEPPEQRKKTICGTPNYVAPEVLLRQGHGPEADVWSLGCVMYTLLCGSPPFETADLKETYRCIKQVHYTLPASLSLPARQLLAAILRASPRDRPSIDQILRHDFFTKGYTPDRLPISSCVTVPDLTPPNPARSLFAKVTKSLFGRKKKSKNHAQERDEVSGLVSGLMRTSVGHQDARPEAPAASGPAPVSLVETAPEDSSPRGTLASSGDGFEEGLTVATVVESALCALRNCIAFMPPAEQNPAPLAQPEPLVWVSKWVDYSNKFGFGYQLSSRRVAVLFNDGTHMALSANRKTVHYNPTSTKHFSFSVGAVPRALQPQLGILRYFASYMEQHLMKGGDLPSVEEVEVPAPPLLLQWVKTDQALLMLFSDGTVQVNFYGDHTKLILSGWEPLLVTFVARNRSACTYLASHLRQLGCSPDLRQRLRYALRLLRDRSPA
Chain of UniProt O27552 (whole entry, looked up): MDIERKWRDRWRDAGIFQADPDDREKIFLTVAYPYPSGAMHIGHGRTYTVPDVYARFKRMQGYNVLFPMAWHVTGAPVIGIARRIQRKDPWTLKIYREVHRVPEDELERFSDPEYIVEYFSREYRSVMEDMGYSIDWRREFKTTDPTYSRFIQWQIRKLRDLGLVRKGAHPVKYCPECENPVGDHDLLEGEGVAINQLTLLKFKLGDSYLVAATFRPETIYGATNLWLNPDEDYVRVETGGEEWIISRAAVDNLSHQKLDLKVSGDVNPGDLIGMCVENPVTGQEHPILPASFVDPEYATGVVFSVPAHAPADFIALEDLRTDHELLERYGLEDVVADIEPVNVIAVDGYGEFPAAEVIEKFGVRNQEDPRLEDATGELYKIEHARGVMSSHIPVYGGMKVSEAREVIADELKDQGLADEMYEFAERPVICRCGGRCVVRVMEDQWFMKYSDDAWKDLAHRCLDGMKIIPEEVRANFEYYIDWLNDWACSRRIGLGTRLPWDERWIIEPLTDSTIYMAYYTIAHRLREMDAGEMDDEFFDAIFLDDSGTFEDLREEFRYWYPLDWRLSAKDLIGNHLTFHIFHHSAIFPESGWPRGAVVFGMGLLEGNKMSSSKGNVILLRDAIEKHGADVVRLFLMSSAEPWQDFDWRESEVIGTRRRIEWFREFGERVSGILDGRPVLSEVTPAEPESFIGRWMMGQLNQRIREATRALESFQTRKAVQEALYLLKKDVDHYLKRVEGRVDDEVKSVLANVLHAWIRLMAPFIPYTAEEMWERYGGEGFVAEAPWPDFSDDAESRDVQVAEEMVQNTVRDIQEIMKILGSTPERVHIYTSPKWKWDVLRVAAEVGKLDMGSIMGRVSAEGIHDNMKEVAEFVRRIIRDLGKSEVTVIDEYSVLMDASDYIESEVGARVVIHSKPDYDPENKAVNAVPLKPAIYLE
Chain of UniProt Q12798 (whole entry, unmodified, looked up): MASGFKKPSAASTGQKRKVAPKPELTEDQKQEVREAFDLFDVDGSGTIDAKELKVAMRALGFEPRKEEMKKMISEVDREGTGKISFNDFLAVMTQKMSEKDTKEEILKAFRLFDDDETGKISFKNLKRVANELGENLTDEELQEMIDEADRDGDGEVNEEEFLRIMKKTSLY
Chain of UniProt Q8PTU1 (whole entry, looked up): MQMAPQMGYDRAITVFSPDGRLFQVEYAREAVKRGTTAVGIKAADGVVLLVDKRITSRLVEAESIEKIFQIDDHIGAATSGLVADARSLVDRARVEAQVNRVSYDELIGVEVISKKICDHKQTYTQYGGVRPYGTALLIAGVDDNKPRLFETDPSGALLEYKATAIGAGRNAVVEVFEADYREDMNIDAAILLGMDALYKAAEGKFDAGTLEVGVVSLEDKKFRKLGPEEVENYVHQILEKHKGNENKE
Chain of UniProt Q8PY58 (whole entry, looked up): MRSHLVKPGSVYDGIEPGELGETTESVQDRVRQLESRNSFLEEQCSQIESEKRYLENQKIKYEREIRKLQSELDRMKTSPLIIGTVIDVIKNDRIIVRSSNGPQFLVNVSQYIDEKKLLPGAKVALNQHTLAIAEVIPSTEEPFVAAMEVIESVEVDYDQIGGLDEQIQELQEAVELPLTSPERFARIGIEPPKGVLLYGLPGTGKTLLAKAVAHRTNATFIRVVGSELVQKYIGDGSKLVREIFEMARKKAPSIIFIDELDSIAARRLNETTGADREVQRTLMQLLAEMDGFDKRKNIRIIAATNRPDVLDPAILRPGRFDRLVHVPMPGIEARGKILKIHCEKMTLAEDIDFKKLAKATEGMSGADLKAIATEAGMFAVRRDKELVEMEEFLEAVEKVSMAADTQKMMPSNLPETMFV
Chain of UniProt O60656 (whole entry, looked up): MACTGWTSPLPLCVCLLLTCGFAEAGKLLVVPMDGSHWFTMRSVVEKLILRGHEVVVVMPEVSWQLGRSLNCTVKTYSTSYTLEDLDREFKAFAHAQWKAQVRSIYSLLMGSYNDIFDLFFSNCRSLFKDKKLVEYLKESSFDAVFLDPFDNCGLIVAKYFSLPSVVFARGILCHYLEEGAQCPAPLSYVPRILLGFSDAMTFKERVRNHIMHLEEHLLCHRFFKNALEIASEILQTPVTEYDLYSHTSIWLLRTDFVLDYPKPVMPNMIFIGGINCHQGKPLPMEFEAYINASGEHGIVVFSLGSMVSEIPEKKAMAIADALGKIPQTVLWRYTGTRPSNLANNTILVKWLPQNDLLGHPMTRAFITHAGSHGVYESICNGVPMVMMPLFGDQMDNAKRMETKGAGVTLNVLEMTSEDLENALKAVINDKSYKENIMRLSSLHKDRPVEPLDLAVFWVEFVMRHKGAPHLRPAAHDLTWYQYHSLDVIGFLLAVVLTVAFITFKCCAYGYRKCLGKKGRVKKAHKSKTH
Chain of UniProt P70618 (whole entry, looked up): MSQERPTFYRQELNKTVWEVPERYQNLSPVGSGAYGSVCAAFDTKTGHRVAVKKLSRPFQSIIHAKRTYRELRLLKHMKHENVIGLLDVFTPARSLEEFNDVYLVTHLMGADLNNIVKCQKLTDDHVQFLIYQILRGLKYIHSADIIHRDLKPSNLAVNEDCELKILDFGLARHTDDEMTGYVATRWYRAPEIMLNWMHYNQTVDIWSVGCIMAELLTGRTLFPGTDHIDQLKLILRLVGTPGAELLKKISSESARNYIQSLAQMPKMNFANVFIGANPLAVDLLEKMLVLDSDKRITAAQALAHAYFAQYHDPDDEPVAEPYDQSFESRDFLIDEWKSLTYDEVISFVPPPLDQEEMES

| Substance | target or system | test | system | conditions | scale | measurement | result |
| --- | --- | --- | --- | --- | --- | --- | --- |
| B1 (DLAT 214-416) | T1, PDHA1/PDHB 30-390 E229Q on β (Homo sapiens) | SPR |  |  |  | binding | binds |
| YAEKHRRAKLRLYLEQ (MXD4 D-site peptide (Homo sapiens)) | Mapk14, pT180, pY182 (Rattus norvegicus, UniProt P70618) | kinase activity, inhibitor, competitive kinase inhibition assay | peptide | with: ATP 1 mM |  | IC50 | 5.2 µM |
| GKAPRKQ (acetyl-Lys18) | Protein AF-9, YEATS domain (Homo sapiens, UniProt P42568) | binding, isothermal titration calorimetry |  | with: acetylated histone peptides |  | Kd | 11 µM |
| AMKQHGLDAYRSYSL (HEL(11–25) R14Q/N19A/G22S; also: fluorescein (FITC) label, position not given here) | H2-Ab1/H2-Aa | class II-peptide complex dissociation, SEC-HPLC fluorescence | peptide, soluble I-A FITC-peptide complex | pH 5.3, 37 °C, with: unlabeled Eα 5 µM |  | half-life | 33 h |
| B2 (tuf) | leuS, Alexa Fluor 488 label (Methanothermobacter thermautotrophicus, UniProt O27552) | Leu-tRNA synthesis |  |  | reference: free enzyme, higher = faster synthesis | kcat increase | 8 fold |
| Ac-NWKLLAKGLLIRERLKR-NH2 (XPC 847-863 (Homo sapiens); N-acetyl; C-terminal amide) | CETN1, phosphothreonine (Homo sapiens, UniProt Q12798) | ITC | peptide | pH 7.5, 30 °C, one-site model, with: CaCl2 1 mM |  | ΔH | -34.6 kcal/mol |
| UGT1A9 (Homo sapiens, UniProt O60656) | O=c1c(O)c(-c2ccc(O)cc2)oc2ccc(O)cc12 | steady-state kinetics |  | pH 7.4, 37 °C |  | Vmax/Km | 22000 µL/min/mg |
| HNTNGATAACSHE (HA(126-138) V131A) | H2-Ab1/H2-Aa | class II-peptide complex dissociation, SEC-HPLC fluorescence | peptide, soluble I-A FITC-peptide complex | pH 5.3, 37 °C, with: unlabeled Eα 5 µM |  | half-life | 0.9 h |
| GLHST (FITC-labelled, PEGylated) | Serine/threonine-protein kinase PLK3, polo-box domain (PLK3, Homo sapiens, UniProt Q9H4B4) | binding, fluorescence polarization |  | polo-box domain, with: FITC-labelled peptide |  | Kd | > 2.56 µM |
| PAN-A (Methanosarcina mazei, UniProt Q8PY58) | 20S proteasome core particle (Methanosarcina mazei, UniProt Q8PTU1) | BODIPY-casein degradation, activator |  | 100 nM CP, with: ATP | reference: MmCP alone, higher = more degradation | casein degradation | 2.5 fold |

Some of these lines once more:
| Substance | target or system | test | system | conditions | scale | measurement | result |
| --- | --- | --- | --- | --- | --- | --- | --- |
| PAN-A (Methanosarcina mazei, UniProt Q8PY58) | 20S proteasome core particle (Methanosarcina mazei, UniProt Q8PTU1) | BODIPY-casein degradation, activator |  | 100 nM CP, with: ATP | reference: MmCP alone, higher = more degradation | casein degradation | 2.5 fold |
